Assay results collected from several papers.
A part holds a random share of what one study measured. Changes are numbered by the printed parent chain.

Block 1
Target: ABI1, truncated, D143A, DHFR fusion (Arabidopsis thaliana)
Technique: DHFR PCA, deep sequencing
Medium: yeast
Setting: methotrexate growth selection, single substitutions
With: (+)-ABA 4.8 µM
Baseline: wild-type fitted maximum
Direction: higher = stronger binding
Quantity: relative binding score
Parent: PYL1, truncated, DHFR fusion (Arabidopsis thaliana); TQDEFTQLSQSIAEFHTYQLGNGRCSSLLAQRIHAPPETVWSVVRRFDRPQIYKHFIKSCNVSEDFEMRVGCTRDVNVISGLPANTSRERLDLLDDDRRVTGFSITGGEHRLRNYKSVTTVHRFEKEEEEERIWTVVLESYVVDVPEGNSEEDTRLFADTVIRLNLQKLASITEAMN
E38S: 55.5%
S63A: 80.2%
R123K: 88.5%
P36M: 51.3%
E174D: 4.83%
F15P: -18.3%
R88N: 63.6%
I33G: -0.348%
E4Y: 60.4%
V44W: 3.99%
Q10C: 61.1%
M68I: 73.2%

Block 2
Target: Sal-like protein 4, full length isoform B (SALL4, Homo sapiens, UniProt Q9UJQ4-2, residues 1-616)
Technique: universal PBM
Molecule type: double-stranded DNA, one strand shown
Medium: in vitro
Tested at: not given
Setting: 8-mer, flanks averaged, mean of replicates
Direction: higher = stronger binding
Quantity: E-score
Construct (chain): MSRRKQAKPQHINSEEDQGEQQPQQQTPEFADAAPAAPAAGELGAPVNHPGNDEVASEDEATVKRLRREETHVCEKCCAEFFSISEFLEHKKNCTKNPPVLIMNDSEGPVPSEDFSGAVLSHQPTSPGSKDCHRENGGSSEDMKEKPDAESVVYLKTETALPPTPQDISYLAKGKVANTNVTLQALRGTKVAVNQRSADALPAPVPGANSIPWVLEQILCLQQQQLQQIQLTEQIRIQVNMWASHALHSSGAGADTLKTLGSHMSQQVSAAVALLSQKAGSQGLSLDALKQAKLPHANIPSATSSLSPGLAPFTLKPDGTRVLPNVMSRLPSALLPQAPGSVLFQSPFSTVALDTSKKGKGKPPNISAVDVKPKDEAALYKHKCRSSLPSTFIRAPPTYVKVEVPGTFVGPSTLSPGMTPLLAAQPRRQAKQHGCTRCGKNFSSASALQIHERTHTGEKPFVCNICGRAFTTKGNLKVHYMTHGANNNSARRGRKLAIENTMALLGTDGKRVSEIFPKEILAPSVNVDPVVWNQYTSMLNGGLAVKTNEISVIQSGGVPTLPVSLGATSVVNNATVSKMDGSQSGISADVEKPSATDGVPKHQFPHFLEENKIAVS
AACTTTCG: 0.0664
ATTTCGTG: 0.084
GAAGCGTC: -0.00998
ACCCTAAT: 0.0693
AGAGAACC: -0.256
ACTGCATC: -0.0478
CCGCGCAC: -0.256
ACCTCAAC: 0.00133
GACTCAGC: -0.139
ACCGCATC: -0.198
GGGAAACA: 0.0222
GTGATCTA: 0.165
CCGAACCG: -0.334
TATCCGGA: -0.0206
CTGAAATC: 0.0637
CGATAGCA: -0.106
ATTGGTTC: 0.0915
GGCTATCA: -0.0191
GCAGCGGA: -0.299
ATCGAATA: 0.216
GGTATTAC: 0.143
AGAAGGAA: -0.034
ACAGGTAG: -0.0275
ACCTGTAA: 0.123
TCCTGTCA: 0.0093

Block 3
Target: RING finger protein unkempt homolog, zinc fingers 1-6, SBP tag (UNK, Homo sapiens, UniProt Q9C0B0, residues 30-357)
Sequence of UniProt Q9C0B0 (30-357, looked up): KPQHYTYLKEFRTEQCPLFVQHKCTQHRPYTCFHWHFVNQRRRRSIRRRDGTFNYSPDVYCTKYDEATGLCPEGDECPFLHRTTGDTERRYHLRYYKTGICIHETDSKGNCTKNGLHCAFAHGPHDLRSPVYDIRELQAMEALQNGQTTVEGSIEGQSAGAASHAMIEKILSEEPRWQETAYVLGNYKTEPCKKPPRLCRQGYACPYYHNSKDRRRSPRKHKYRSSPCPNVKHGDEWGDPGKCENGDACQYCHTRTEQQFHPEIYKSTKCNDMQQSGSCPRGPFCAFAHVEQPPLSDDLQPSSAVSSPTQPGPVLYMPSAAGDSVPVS
Technique: RNA Bind-n-Seq
Molecule type: RNA
Medium: in vitro
Tested at: 100 nM
Setting: RNA with constant flanks, vertebrate orthologous sites, ends assumed
Baseline: input RNA pool
Direction: higher = stronger binding
Quantity: bound/input enrichment
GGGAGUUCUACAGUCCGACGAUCUCUAGACAGUUUUAAAGAUACUUCCUCCUAGGAUGCUUUGGCCCUUCAUCUAUUUAAUCGUAGCUACAUAUCUAUUUUUUAUAAAUAGCAGUACACCUUCCAAGGGGACUCGCUUGGUGUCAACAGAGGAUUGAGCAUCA: 1.62 ratio
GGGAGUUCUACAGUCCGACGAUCAAGAACAGGAGCAGCAUAGACUGAGCUUUGGGGAAAUGAGCUUUGCUUUUUGUAUUUAAAUAGGAUACUUUUAUAUGAUGGGUGCUUUGAGUGUGAAUGCAGCAGGCUCUCCAUUUCAGACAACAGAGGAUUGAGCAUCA: 1.1 ratio
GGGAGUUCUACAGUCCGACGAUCGUUUUUGUUUUCCACAUGUGGCAGUGUUUGUAUUGAGGAUCUUCUGAGGAAGGGGUGCUAUAGCAGUGGUGCCUGGGUUCCUGGCCUCCAGUGCCCCCACCACCCCAACUGGCAGCUUUGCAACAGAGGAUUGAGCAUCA: 0.529 ratio
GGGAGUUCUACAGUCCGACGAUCCUCAUUUCCAGGUUGGCUCUAGUGGAAAAGUCAUAGGAAUUGACCACAUUAAAGAGCUAGUAGAAGACUCAGUAAAUAAUGUCAGAAAGGACGAUCCACUGCUUUUGUCUUCAGGGAGAGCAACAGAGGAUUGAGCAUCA: 0.391 ratio
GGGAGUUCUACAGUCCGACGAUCUUGGGAGCAGCUCUCCAAAUAGAAAUAGUAGUAAAAAAACCAAACAAAAUGAUAUUUGUGUAGAAAAAACAGAAGUAAUCAUGAAGUAAUGUGCAGUGUCCAGUCCUAAAGAUUUGGGGUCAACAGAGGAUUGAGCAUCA: 1.97 ratio
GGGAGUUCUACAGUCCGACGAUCACUGUUGUUAAGCACUGUGUUCCAGACCGUGUCUGACUUAGUGUAACCUAGGAGAUUUUAUAGUUUUAUUUUAAUGAAACCCUAAUUGACGCACAGCAGUGGGGAGAACAGCGUCUUUUACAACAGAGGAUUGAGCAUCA: 2.34 ratio
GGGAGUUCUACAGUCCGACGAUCCACAUCUGGUGAUAUUUGGCCUGGCCUUUCAGCGUAUGAUAAUAGUCCCAGAUCGCCCCAUAGUCCUUCACCAAUCGCUACACCACCUAGUCAGAGUUCAUCUUGCUCUGAUGCCCCCAUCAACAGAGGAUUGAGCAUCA: 0.893 ratio
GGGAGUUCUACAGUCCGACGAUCAGGCUUAGAAAUUGGAGUGGAACCAGAAUCUAGCCCAAGUAAAACAAACAUGAAAUGACCAAAUGAUCACCACACCCAGUACAGCUGCCACUCAGGGUAGAUGCAAAAUAAAGUCAGAACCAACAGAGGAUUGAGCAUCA: 0.411 ratio
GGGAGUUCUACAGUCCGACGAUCGUUUUUUUGUUUUGCACAUGACCGUGUGUGUGUUGAUCUGAGGGAGGAGGAGGGGUCCUGGAGCAGUUGGGUCUCCAGUGCCACCACCCUCACCAUCCGACCUGGUACCUUUGCCACGUUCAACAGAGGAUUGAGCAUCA: 0.312 ratio
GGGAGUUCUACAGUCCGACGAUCUGUUUUCUUAUUUUAGGUAUCAUUGUCCAGUGCCUAAGAUCUUUUAUGUUCAGCUGACUGUAGGAAAUAAUGAAUUUUUUGGUGAAGGAAAGACUCGACAAGCGGCGAGACACAAUGCUGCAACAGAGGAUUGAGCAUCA: 0.625 ratio
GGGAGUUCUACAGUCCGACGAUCCUACACCAGAUAUUUUAACUGUUUUAAAGUUACAAACAAGCUUUGCUUUUUGCAUUUAAAUAGAAUACUUUUAUAUUUUAAGUGCUUCAGAUGUGUGGAGGUGUUAGUUUGCUCUUAUAACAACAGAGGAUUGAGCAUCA: 0.551 ratio

Block 4
Target: CCND2, cyclin fold, Cln2 fusion (human)
Technique: yeast growth competition, sequencing
Medium: yeast
Setting: weak parent motif
Baseline: not given
Direction: higher = stronger binding
Quantity: normalised enrichment score
Parent: MASTL docking peptide (human); PMIAKNLMCELDE
PFIAKNLMCELDE [M2F]: 0.0515
PMIAKYLMCELDE [N6Y]: -0.111
PMIYKNLMCELDE [A4Y]: -0.0978
PMIAQNLMCELDE [K5Q]: -0.169
PMIAKNVMCELDE [L7V]: -0.403
PMIAKSLMCELDE [N6S]: -0.0755
PMDAKNLMCELDE [I3D]: -0.106
PMIALNLMCELDE [K5L]: 0.383
PMIAKQLMCELDE [N6Q]: 0.394
PMIAKNLMCELME [D12M]: 0.569
PLIAKNLMCELDE [M2L]: 0.327
PMIAKNLMSELDE [C9S]: 0.0752
PMIAKNLMCEMDE [L11M]: -0.763
PMNAKNLMCELDE [I3N]: 0.174
PKIAKNLMCELDE [M2K]: 0.155
PMIAKNLMCLLDE [E10L]: 0.185
PDIAKNLMCELDE [M2D]: 0.109
PMIAKNLMCALDE [E10A]: 0.0179
PMIAKNLMCEHDE [L11H]: 0.253
PMIDKNLMCELDE [A4D]: 0.362
PMIAKNLMCVLDE [E10V]: 0.206
PPIAKNLMCELDE [M2P]: 0.205
PMIACNLMCELDE [K5C]: 0.337
PMIANNLMCELDE [K5N]: 0.0648
PMIAKNLMAELDE [C9A]: 0.0299

Block 5
Target: Interferon regulatory factor 5, full length, phosphomimetic (IRF5, Homo sapiens, UniProt Q13568-2, residues 1-514, K96S/S451D/S453D/S456D/S462D)
Technique: protein-binding microarray
Molecule type: double-stranded DNA, one strand shown
Medium: in vitro
Tested at: 250 nM
Setting: 60-bp whole probe
With: salmon DNA 0.4 mg/ml
Baseline: random background probes
Direction: higher = stronger binding
Quantity: log fluorescence
All sequences stand within: GCCTAGCAC … GTCTTGATTCGCTTGACGCTGCTG
GACGATTTCAGTATCGGGACGTGCTAG: 3.73 z-score
TCACTTCTAATATTCATACTGTGCTAG: 0.952 z-score
CCTCCTCCCTGTTTCCATCTGTGCTAG: 0.387 z-score
TTAGAGTCCAGTTTCGATTAGTGCTAG: 9.41 z-score
TCAGCTTCCCAATTCTCACTGTGCTAG: 0.552 z-score
GACGGTTTCGACTTACGGGACGTGCTA: 6.22 z-score
CATTCTCTGCTTCTGTATGGGTGCTAG: 0.524 z-score
GACGGACTGCTTTTCCAGACGTGCTAG: -0.271 z-score
TTAGGAATGGGGTTTCGGTTAGTGCTA: 7.31 z-score
GACGATATCAGTATAGAGACGTGCTAG: 1.52 z-score
GACAATTCCAGTTTCGAGACGTGCTAG: 6.28 z-score
TTAGATTTCCGTCTCGATTAGTGCTAG: 1.2 z-score
TTAGGACTGGGGGCTGGGTTAGTGCTA: 0.724 z-score
TTAGGCATCGACTATCGGTTAGTGCTA: 6.45 z-score
TTAGATATCTGGACTGGATTAGTGCTA: 0.204 z-score
GCCGGACTGGACACTGGGGACGTGCTA: -0.816 z-score
GACGTTTTCCTTATCCTGACGTGCTAG: 0.802 z-score
GACGGTATCCTTATGCTGACGTGCTAG: -0.0313 z-score
GACGGCTTCCTACTGCTGACGTGCTAG: -0.57 z-score
GACGAACTGGACTATCGGGACGTGCTA: 0.736 z-score
TCATGCATCTATCTTAAACTGTGCTAG: 0.457 z-score
TTTTCTCTGGTTCTTGCTTGGTGCTAG: 1.42 z-score
GACGGTTCAGGTTTCGGGACGTGCTAG: 2.41 z-score
AACGGTTTCCTTTCCCTGACGTGCTAG: 1.77 z-score
TGGGTGACTCTTACTCATTAGTGCTAG: -0.658 z-score
